Assay results gathered from unrelated publications.
A part holds a random share of what one study measured. Several values in a cell are separate wells, animals, samples, runs or records.
UniProt Q9UEE5, sequence (whole entry, looked up): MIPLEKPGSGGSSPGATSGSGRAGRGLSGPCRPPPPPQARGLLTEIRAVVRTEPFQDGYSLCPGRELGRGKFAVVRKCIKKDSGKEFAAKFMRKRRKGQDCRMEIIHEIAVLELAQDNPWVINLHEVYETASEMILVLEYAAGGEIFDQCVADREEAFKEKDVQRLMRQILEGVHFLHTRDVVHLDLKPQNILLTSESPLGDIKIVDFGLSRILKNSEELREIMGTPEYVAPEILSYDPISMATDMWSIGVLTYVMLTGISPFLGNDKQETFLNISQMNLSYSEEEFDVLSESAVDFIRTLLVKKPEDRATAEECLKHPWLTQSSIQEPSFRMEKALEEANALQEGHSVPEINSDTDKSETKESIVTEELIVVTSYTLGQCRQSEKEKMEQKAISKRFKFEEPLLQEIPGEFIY
UniProt Q14164, sequence (whole entry, looked up): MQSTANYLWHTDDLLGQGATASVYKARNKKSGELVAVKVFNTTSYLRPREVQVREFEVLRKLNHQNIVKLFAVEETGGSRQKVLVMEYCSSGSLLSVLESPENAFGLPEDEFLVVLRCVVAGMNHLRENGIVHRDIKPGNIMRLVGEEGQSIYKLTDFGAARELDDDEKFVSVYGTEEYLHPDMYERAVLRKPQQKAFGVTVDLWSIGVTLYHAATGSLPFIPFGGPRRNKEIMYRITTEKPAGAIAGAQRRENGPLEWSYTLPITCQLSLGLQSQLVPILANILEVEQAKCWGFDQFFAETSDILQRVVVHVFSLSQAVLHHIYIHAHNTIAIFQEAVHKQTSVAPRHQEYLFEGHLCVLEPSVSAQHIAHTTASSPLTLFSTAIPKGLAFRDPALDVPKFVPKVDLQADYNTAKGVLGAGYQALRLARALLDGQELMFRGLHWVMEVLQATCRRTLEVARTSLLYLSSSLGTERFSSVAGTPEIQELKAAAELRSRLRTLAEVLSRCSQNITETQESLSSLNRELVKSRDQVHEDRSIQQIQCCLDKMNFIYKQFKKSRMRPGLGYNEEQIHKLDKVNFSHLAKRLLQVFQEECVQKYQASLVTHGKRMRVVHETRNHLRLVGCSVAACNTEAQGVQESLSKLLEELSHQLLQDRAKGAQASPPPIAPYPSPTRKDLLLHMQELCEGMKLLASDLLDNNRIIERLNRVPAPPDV

Sample 1 — cell line: Huh-7; tested at: 10 µM; time: 24 h
| SMILES | viability [%] |
| --- | --- |
| CCc1cn([C@H]2C[C@H](O)[C@@H](CO)O2)c(=O)[nH]c1=O | 78.6 |
| Cc1onc(-c2ccccc2)c1-c1ccc(S(N)(=O)=O)cc1 | 94 |
| COc1ccc2c(c1OC)C(=O)O[C@@H]2[C@H]1c2c(cc3c(c2OC)OCO3)CCN1C | 91.6 |
| CN(C)CCCN1c2ccccc2CCc2ccccc21 | 88.3 |
| CN1CCC(=C2c3ccccc3CC(=O)c3sccc32)CC1 | 100 |
| CCOC(=O)[N-]c1cn(N2CCOCC2)n[o+]1 | 93.9 |
| CCN(CC)CCNC(=O)COc1ccc(OC)cc1 | 100 |
| CC(C)NCC(O)c1cc(O)cc(O)c1 (stereo not shown) | 97.2 |
| CCCCNc1cc(C(=O)O)cc(S(N)(=O)=O)c1Oc1ccccc1 | 97.2 |
| CCN(CC)C(=O)c1ccc(O)c(OC)c1 | 96.5 |
| CO[C@@]1(NC(=O)Cc2cccs2)C(=O)N2C(C(=O)O)=C(COC(N)=O)CS[C@@H]21 | 96 |

Sample 2 — host: human; medium: microsomes or S9; tested at: 2 µM; time: 0.5 h
| Structure (SMILES) | remaining compound |
| --- | --- |
| CC(C)CCNC(=O)c1c(OCC2CC2)cc(=O)n2c1CCOCC2 | 64.5% |
| COc1cc(C2CCNCC2)ccc1Nc1ncc(Cl)c(Nc2ccccc2CS(=O)(=O)C(C)C)n1 | 21.3% |
| O=C(O)C(c1c[nH]c2ccccc12)N1CCN(CC(=O)N2CCCCCC2)CC1 (stereo not shown) | 93.9% |
| COc1cc2c(cc1OC)-c1cc(-c3cc(C#N)n(C)c3C)c(C#N)c(=N)n1CC2 | 92.3% |
| CN(C)CCN1C(=O)C2CC=C(Cl)CC2C1=O (stereo not shown) | 50.9% |
| N=c1sc2cc(OC(F)(F)F)ccc2n1CCO | 73.2% |
| CC(NS(C)(=O)=O)c1nnc(N2CCC(C(C)(C)C)C2)n1CC1CCCCO1 (stereo not shown) | 22% |
| CCOC(=O)c1c2ccccc2n2/c(=C\c3ccccc3C)c3ccccc3c12 | 18.5% |
| COC(=O)c1cn2c(nc3cc(F)c(F)cc32)c(C#N)c1O | 63.1% |

Sample 3 — read-out: enzyme activity; mode: inhibitor; tested at: 0.5 µM; relative to: control
Target: Lymphokine-activated killer T-cell-originated protein kinase (PBK, Homo sapiens, UniProt Q96KB5)
Target sequence (Q96KB5 1-322): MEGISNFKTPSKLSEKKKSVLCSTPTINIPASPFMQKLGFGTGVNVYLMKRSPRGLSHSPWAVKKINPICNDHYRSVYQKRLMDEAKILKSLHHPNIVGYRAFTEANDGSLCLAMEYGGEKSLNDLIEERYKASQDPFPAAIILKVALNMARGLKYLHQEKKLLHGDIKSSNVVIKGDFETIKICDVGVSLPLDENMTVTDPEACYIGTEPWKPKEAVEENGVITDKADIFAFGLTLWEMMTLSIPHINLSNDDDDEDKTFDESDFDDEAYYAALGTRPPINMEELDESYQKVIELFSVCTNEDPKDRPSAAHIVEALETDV
| SMILES | remaining activity [%] |
| --- | --- |
| O=C(c1ccccc1)c1ccc(N2CCOCC2)cc1O | 114 |
| c1cc(-c2cnn3cc(-c4ccc(OCCN5CCCCC5)cc4)cnc23)ccn1 | 79.7 |
| NC(=O)c1cccc(-c2cc(Nc3ccc(OC(F)(F)F)cc3)ncn2)c1 | 72.2 |
| Clc1ccc(Nc2nnc(Cc3ccncc3)c3ccccc23)cc1 | 108 |
| O=c1c(-c2ccc(F)cc2)c(-c2ccncc2)[nH]n1-c1ccc(Cl)cc1 | 87.7 |
| COc1cc2c(N3CCN(C(=O)Nc4ccc(OC(C)C)cc4)CC3)ncnc2cc1OCCCN1CCCCC1 | 98 |
| C[C@@H](N)[C@H]1CC[C@H](C(=O)Nc2ccncc2)CC1 | 56.7 |
| NC(=O)c1ccc(-c2nc(-c3ccc4c(c3)OCCO4)c(-c3ccccn3)[nH]2)cc1 | 105 |
| O=C1c2ccccc2-c2nc3nnnn3nc21 | 64.5 |
| O=C(O)/C=C/c1cc(Br)c(Br)c(Br)c1Br | 96.2 |
| CC(C)(C)c1nc2c3cc[nH]c(=O)c3c3cc(F)ccc3c2[nH]1 | 39.1 |
| N#CC(c1ccnc(NCCc2cccnc2)n1)c1nc2ccccc2s1 (stereo not shown) | 99.7 |
| FC(F)(F)c1ccc(/C=C/c2nc(COc3ccc(CCCCn4ccnn4)cc3)co2)cc1 | 99.9 |
| CCN(CC)CCCCN1c2ccccc2Oc2ccc(Cl)cc21 | 105 |
| N#C/C(=C(/N)SC1C=CC=CC1)c1cccc(C(O)c2ccncc2)c1 (stereo not shown) | 122 |
| CC(C)n1cnc2c(Nc3cccc(Cl)c3)nc(NCCO)nc21 | 101 |
| Nc1nc(Nc2ccc(S(N)(=O)=O)cc2)nn1C(=S)Nc1c(F)cccc1F | 105 |
| COc1cc2c(Nc3ccc(Br)cc3F)ncnc2cc1OCC1CCN(C)CC1 | 98.9 |
| CC(C)N(CCC(=O)c1ccc2ccccc2c1)Cc1ccccc1 | 108 |
| O=C1NC(=O)/C(=C/c2ccc3c(c2)OC(F)(F)O3)S1 | 91.8 |
| CNc1cc2c(Nc3cccc(Br)c3)ncnc2cn1 | 102 |
| CCCCc1c(-c2ccc(O)cc2)[nH]c2nccnc12 | 75.6 |
| O=Nc1c(-c2c(O)[nH]c3ccccc23)[nH]c2ccccc12 | 89.5 |

Sample 4 — read-out: target engagement; method: NanoBRET; medium: live cells
SMILES: C[C@H](c1ccnc(Nc2nc3ccc(-c4cc(N(C)C)ncn4)cc3[nH]2)c1)N1CCN(C(=O)CC(F)(F)F)CC1
| target | EC50 |
| --- | --- |
| Serine/threonine-protein kinase 17A (STK17A, Homo sapiens, UniProt Q9UEE5) | 1440 nM and 9490 nM and 3460 nM |
| Receptor-type tyrosine-protein kinase FLT3 (FLT3, Homo sapiens, UniProt P36888) | 18300 nM |
| Inhibitor of nuclear factor kappa-B kinase subunit epsilon (IKBKE, Homo sapiens, UniProt Q14164) | 947 nM and 144 nM |

Some of these lines once more (sample 2):
| Structure (SMILES) | remaining compound |
| --- | --- |
| N=c1sc2cc(OC(F)(F)F)ccc2n1CCO | 73.2% |
| COc1cc(C2CCNCC2)ccc1Nc1ncc(Cl)c(Nc2ccccc2CS(=O)(=O)C(C)C)n1 | 21.3% |
| O=C(O)C(c1c[nH]c2ccccc12)N1CCN(CC(=O)N2CCCCCC2)CC1 (stereo not shown) | 93.9% |
| COC(=O)c1cn2c(nc3cc(F)c(F)cc32)c(C#N)c1O | 63.1% |
